Experimental data from different studies.
Lines come from different studies, so protocols differ.
Target: Mitogen-activated protein kinase kinase kinase kinase 2 (MAP4K2, Homo sapiens, UniProt Q12851)

CCN1CCN(Cc2ccc(C(=O)Nc3ccc(C)c(NCc4cnc5[nH]ccc5c4OC)c3)cc2C(F)(F)F)CC1  remaining binding (binding, competition with immobilised ligand; 1 µM): 5.2%
C=CC(=O)Nc1cccc(-c2cnc3[nH]cc(C(=O)NC(C)(C)C)c3n2)c1  inhibition (kinase activity; 0.1 µM): 71%
CC(C)=CC1OC(C)(C)C2C=C3C(=O)C(Cl)=CC(O)C3C3C(O)C4OC4C(=O)C132 (stereo not drawn)  remaining binding (cell-free assay, competition with immobilised ligand; 10 µM): 76%
CN1CCN(Cc2ccc(-c3ccc(CO[C@H]4CCC[C@@H]4NC(=O)c4cc(-c5cnn(C)c5)cnc4N)cc3)cc2)CC1  inhibition (enzyme activity, inhibitor; 0.1 µM): 2%
Cc1cccc(O[C@H]2CCC[C@@H](C(C)CNCc3ccncc3)C2)c1 (relative stereo)  inhibition (enzyme activity, inhibitor; 10 µM): -4%
CNC(=O)C1CCN(c2cc(C)c(F)cc2NC(=O)c2ccc(-c3cc(O)ccc3C)c(C)c2)CC1  remaining binding (binding, competition with immobilised ligand; 1 µM): 64%
COc1ccc(NC(=O)Nc2ccc3c(c2)C(=O)N(C(C)CO)CC(C)C(CN(C)Cc2ccc4c(c2)OCO4)O3)cc1 (stereo not drawn)  remaining activity (kinase activity, KinaseProfiler; 0.03 µM, species human; relative to: control): 97%
CN1CC[C@@H](COc2cnc(C#N)cc2-c2ccn3nc(NC(=O)C4CC4)cc3c2)C1  inhibition (enzyme activity, inhibitor; 1 µM): -1%
C=CC(=O)N1CCCC(n2c(=O)c3ncccc3n(Cc3ccc(Oc4ccccc4)cc3)c2=O)C1 (stereo not drawn)  remaining binding (cell-free assay, competition with immobilised ligand; 1 µM): 100%
C=CC(=O)N1CCc2ccc(-n3c(=O)ccc4cnc5ccc(-c6cnn(C)c6)cc5c43)cc21  remaining binding (KINOMEscan; 1 µM; relative to: DMSO control): 100%
COc1cc(Nc2nccc(-c3cnn4nc(OC)ccc34)n2)cc(C(F)(F)F)c1  remaining binding (binding, competition with immobilised ligand; 1 µM): 92%
C=CC(=O)N1Cc2nc(-c3cc(-c4cc(Cl)cnc4Cl)c(F)cc3F)n(-c3ccncn3)c2C1  inhibition (cell-free assay, inhibitor; 1 µM): -5%
CNC1C[S+]2CC[S+]3CC[S+](C1)[Ru-4]321([N]=C=S)[n]2c3ccc(OC)cc3c3c4c(c5cc(F)c[n+]1c5c32)C(=O)NC4=O (stereo not drawn)  remaining binding (KinomeScan; 0.1 µM; relative to: untreated): 89%
Nc1ncc2c(n1)-c1c([nH]c3ccc(C4=CCOCC4)cc13)CCC2  remaining binding (binding, competition with immobilised ligand; 1 µM): 94%
NC(=O)[C@@H](O)C[C@H]1CCc2sc3ncnc(O[C@H]4CC[C@H](N5CCOCC5)CC4)c3c21  inhibition (enzyme activity, inhibitor; 10 µM): 9%

Repeated from above:
C=CC(=O)N1Cc2nc(-c3cc(-c4cc(Cl)cnc4Cl)c(F)cc3F)n(-c3ccncn3)c2C1  inhibition (cell-free assay, inhibitor; 1 µM): -5%
CCN1CCN(Cc2ccc(C(=O)Nc3ccc(C)c(NCc4cnc5[nH]ccc5c4OC)c3)cc2C(F)(F)F)CC1  remaining binding (binding, competition with immobilised ligand; 1 µM): 5.2%
